Results pooled from the literature.
Parts stem from different laboratories: compare values within a part only. Values joined by “and” are separate records of one study, mostly repeats; a detail may differ.
Sequence of UniProt P10721 (whole entry, unmodified, looked up): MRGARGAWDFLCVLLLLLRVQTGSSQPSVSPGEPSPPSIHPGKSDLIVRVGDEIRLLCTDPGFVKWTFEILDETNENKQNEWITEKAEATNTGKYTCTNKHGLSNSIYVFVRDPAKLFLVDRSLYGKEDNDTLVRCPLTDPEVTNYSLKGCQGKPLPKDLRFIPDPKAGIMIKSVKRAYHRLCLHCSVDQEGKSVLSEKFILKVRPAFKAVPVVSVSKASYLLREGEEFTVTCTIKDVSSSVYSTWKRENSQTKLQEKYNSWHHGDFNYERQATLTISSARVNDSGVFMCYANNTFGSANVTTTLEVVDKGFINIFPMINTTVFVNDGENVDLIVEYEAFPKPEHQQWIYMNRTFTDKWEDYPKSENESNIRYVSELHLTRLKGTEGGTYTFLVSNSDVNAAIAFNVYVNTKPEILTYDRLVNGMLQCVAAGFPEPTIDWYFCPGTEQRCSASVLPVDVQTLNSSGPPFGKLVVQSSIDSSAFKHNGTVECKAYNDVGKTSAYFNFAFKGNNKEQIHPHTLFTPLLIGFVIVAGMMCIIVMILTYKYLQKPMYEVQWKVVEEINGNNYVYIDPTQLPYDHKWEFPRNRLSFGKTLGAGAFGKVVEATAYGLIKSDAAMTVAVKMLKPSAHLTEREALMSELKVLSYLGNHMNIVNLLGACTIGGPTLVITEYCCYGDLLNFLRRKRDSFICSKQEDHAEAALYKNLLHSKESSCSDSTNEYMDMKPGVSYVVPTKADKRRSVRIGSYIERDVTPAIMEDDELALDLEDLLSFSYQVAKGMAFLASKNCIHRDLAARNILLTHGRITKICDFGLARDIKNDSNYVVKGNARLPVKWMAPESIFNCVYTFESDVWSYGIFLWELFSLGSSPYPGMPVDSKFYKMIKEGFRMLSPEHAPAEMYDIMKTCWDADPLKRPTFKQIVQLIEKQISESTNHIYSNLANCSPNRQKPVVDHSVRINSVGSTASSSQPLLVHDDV
Sequence of UniProt Q7L7X3 (whole entry, looked up): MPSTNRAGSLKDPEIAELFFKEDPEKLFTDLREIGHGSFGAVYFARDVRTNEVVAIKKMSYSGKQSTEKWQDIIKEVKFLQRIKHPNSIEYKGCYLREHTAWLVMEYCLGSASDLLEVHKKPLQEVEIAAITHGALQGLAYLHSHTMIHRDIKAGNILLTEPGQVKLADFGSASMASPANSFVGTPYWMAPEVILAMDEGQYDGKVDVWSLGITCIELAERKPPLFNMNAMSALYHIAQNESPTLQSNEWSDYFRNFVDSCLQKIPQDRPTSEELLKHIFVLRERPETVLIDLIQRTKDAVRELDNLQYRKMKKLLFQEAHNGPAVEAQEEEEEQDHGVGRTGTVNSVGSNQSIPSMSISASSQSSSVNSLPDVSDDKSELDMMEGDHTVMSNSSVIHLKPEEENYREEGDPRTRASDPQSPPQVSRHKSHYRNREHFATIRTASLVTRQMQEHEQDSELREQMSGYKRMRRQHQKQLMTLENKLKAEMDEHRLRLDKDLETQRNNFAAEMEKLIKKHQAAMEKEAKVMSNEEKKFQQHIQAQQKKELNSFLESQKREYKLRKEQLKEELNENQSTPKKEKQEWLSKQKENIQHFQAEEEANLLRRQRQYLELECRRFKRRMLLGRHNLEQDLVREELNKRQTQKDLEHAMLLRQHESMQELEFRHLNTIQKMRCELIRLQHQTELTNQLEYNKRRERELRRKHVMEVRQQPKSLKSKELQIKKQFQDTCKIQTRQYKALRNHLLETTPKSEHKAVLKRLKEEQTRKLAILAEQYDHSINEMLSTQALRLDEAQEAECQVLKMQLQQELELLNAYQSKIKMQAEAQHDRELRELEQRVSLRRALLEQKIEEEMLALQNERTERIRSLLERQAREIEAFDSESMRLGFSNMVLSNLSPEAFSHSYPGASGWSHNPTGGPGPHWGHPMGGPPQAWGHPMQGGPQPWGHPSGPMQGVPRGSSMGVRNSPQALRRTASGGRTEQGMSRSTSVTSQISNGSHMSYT
Sequence of UniProt Q9HAZ1 (whole entry, looked up): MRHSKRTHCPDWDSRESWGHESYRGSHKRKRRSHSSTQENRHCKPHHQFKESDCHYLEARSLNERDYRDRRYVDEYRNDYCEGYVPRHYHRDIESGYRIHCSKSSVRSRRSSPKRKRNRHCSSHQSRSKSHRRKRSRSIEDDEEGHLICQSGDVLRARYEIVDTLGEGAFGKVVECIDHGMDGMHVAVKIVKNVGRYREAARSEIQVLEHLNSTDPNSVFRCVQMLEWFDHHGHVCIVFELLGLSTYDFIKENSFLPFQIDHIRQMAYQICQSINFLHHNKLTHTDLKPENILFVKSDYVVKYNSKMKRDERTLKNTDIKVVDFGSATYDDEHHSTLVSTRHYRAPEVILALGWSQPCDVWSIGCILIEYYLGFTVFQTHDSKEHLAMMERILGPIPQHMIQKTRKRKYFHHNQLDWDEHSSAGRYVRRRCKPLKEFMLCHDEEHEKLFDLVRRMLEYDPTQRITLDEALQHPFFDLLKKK

Study 1 — effect on: cell-free assay; method: competition with immobilised ligand; concentration: 1 µM
SMILES: N#CC1(c2ccccn2)CCN(Cc2cc(C(=O)N3CCCC3)c(=O)n3ccccc23)CC1
cGMP-dependent protein kinase 1 (PRKG1, Homo sapiens, UniProt Q13976) — remaining binding: 88%.
The remaining binding was 91% (RAC-alpha serine/threonine-protein kinase (AKT1, Homo sapiens, UniProt P31749)).
It gave 95% for remaining binding (Mast/stem cell growth factor receptor Kit (KIT, Homo sapiens, UniProt P10721)).
Serine/threonine-protein kinase Nek10 (NEK10, Homo sapiens, UniProt Q6ZWH5) — remaining binding: 96%.
Serine/threonine-protein kinase LATS2 (LATS2, Homo sapiens, UniProt Q9NRM7) — remaining binding: 93%.
It gave 97% for remaining binding (Dual specificity protein kinase CLK4 (CLK4, Homo sapiens, UniProt Q9HAZ1)).
For Mast/stem cell growth factor receptor Kit (KIT, Homo sapiens, UniProt P10721, T670I/V559D): remaining binding read 88%.
The remaining binding was 100% (Serine/threonine-protein kinase TAO1 (TAOK1, Homo sapiens, UniProt Q7L7X3)).
The remaining binding was 78% (Tyrosine-protein kinase ABL1, non-phosphorylated (ABL1, Homo sapiens, UniProt P00519)).
Mast/stem cell growth factor receptor Kit (KIT, Homo sapiens, UniProt P10721, D816V) — remaining binding: 100%.
The remaining binding was 100% (Uncharacterized serine/threonine-protein kinase SBK3 (SBK3, Homo sapiens, UniProt P0C264)).
Mitogen-activated protein kinase kinase kinase 11 (MAP3K11, Homo sapiens, UniProt Q16584) — remaining binding: 89%.
It gave 100% for remaining binding (Mitogen-activated protein kinase kinase kinase 14 (MAP3K14, Homo sapiens, UniProt Q99558)).
For Phosphatidylinositol 4-phosphate 3-kinase C2 domain-containing subunit beta (PIK3C2B, Homo sapiens, UniProt O00750): remaining binding read 100%.
The remaining binding was 100% (TRAF2 and NCK-interacting protein kinase (TNIK, Homo sapiens, UniProt Q9UKE5)).
The remaining binding was 100% (Ribosomal protein S6 kinase alpha-4, C-terminal kinase domain (RPS6KA4, Homo sapiens, UniProt O75676)).
The remaining binding was 77% (Tyrosine-protein kinase ABL1, non-phosphorylated (ABL1, Homo sapiens, UniProt P00519, H396P)).
Cytoplasmic tyrosine-protein kinase BMX (BMX, Homo sapiens, UniProt P51813) — remaining binding: 84%.
For Serine/threonine-protein kinase NLK (NLK, Homo sapiens, UniProt Q9UBE8): remaining binding read 92%.
Myosin light chain kinase, smooth muscle (MYLK, Homo sapiens, UniProt Q15746) — remaining binding: 100%.
For Serine/threonine-protein kinase PAK 2 (PAK2, Homo sapiens, UniProt Q13177): remaining binding read 100%.
Receptor-interacting serine/threonine-protein kinase 1 (RIPK1, Homo sapiens, UniProt Q13546) — remaining binding: 100%.
For Mitogen-activated protein kinase kinase kinase kinase 5 (MAP4K5, Homo sapiens, UniProt Q9Y4K4): remaining binding read 75%.
RAF proto-oncogene serine/threonine-protein kinase (RAF1, Homo sapiens, UniProt P04049) — remaining binding: 100%.
The remaining binding was 100% (Serine/threonine-protein kinase PLK2 (PLK2, Homo sapiens, UniProt Q9NYY3)).

Study 2 — method: phase 2a trial; host: idiopathic pulmonary fibrosis patients
Structure (SMILES): CC(C)n1cnc(-c2ccc(F)cc2)c1-c1ncc(C(=O)Nc2ccc(N3CCN(C)CC3)cc2)[nH]1
It gave 0% for “patients with abdominal distension” (30 mg once daily, adverse event grade 3).
It gave 0% for “patients with abdominal distension” (60 mg once daily, adverse event grade 4).
It gave 0% for “patients with abdominal distension” (dose not given, adverse event grade 4, all dose arms pooled).
The “patients with abdominal distension” was 0% (60 mg once daily, adverse event grade 3).
60 mg once daily, adverse event grade 5 — “patients with abdominal distension”: 0%.
For dose not given, adverse event grade 2, all dose arms pooled: “patients with abdominal distension” read 0%.
The “patients with abdominal distension” was 0% (60 mg once daily, adverse event grade 1).

Study 3 — host: human; sample: microsomes or S9; concentration: 2 µM; time: 0.5 h
`c1ccc(C(Nc2ccc3nccnc3n2)c2ccccc2)cc1` gave a remaining compound of 8.45%.
The remaining compound of `CC(C)CC(O)C1CCN(C(=O)CCCn2cncn2)CC1` (stereo not shown) is reported as 89.3%.
`CCOC(=O)c1cccc(NC(=O)N2Cc3c(sc4c3CCCC4)-n3cccc3C2C)c1` (stereo not shown) gave a remaining compound of 0.291%.
`Cc1ccc(CNS(=O)(=O)CC2=NC(=O)n3cccc3C2=O)cc1` has a remaining compound of 2.46%.
`COc1ccc2nc(O)c(-c3c4oc5cc(O)ccc5c4nc4c3c(=O)[nH]n4C3CCCCCCC3)cc2c1` gave a remaining compound of 38.5%.
The remaining compound of `Cc1noc(C23CC(CN2C(=O)Nc2cc(C)c4cn[nH]c4c2)C3)n1` is reported as 91.5%.
`Cc1nc(CN2CCN(c3cnc4ccccc4n3)CC2)oc1C` gave a remaining compound of 39.4%.
`O=C(O)c1cc(-c2ccccc2)nn1-c1ncccc1-c1ccccc1` gave a remaining compound of greater than 99%.
With `CCS(=O)(=O)CC(=O)N1CC(C)(C)N(C)c2cc(Br)ccc21` the remaining compound was 5.1%.

Study 4 — effect on: binding; action: competitor; method: NanoBRET; cell line: HEK293
Structure (SMILES): CC(=O)N1CCN(c2nc(OC[C@@H]3CCCN3C)nc3c2CCN(c2cccc4cccc(Cl)c24)C3)C[C@@H]1CC#N
KRAS Q61H: GTPase KRas (KRAS, Homo sapiens, UniProt P01116, Q61H)
KRAS Q61L: GTPase KRas (KRAS, Homo sapiens, UniProt P01116, Q61L)
KRAS Q61H; 45.7 nM — normalized BRET: 91.4% and 91% and 96.2%.
The normalized BRET was 47.4% and 44.4% and 55.5% (KRAS Q61L; 1.24 µM).
For KRAS Q61H; 412 nM: normalized BRET read 83.2% and 70.9% and 72.2%.
The normalized BRET was 88.2% and 90.2% and 95.6% (KRAS Q61L; 45.7 nM).
The normalized BRET was 13.7% and 13.4% and 6.54% (KRAS Q61L; 33.3 µM).

Study 5 — effect on: enzyme activity; action: inhibitor; concentration: 77 µM
Target: DNA polymerase theta, ATPase domain (POLQ, Homo sapiens, UniProt O75417)
Sequence of UniProt O75417 (whole entry, unmodified, looked up): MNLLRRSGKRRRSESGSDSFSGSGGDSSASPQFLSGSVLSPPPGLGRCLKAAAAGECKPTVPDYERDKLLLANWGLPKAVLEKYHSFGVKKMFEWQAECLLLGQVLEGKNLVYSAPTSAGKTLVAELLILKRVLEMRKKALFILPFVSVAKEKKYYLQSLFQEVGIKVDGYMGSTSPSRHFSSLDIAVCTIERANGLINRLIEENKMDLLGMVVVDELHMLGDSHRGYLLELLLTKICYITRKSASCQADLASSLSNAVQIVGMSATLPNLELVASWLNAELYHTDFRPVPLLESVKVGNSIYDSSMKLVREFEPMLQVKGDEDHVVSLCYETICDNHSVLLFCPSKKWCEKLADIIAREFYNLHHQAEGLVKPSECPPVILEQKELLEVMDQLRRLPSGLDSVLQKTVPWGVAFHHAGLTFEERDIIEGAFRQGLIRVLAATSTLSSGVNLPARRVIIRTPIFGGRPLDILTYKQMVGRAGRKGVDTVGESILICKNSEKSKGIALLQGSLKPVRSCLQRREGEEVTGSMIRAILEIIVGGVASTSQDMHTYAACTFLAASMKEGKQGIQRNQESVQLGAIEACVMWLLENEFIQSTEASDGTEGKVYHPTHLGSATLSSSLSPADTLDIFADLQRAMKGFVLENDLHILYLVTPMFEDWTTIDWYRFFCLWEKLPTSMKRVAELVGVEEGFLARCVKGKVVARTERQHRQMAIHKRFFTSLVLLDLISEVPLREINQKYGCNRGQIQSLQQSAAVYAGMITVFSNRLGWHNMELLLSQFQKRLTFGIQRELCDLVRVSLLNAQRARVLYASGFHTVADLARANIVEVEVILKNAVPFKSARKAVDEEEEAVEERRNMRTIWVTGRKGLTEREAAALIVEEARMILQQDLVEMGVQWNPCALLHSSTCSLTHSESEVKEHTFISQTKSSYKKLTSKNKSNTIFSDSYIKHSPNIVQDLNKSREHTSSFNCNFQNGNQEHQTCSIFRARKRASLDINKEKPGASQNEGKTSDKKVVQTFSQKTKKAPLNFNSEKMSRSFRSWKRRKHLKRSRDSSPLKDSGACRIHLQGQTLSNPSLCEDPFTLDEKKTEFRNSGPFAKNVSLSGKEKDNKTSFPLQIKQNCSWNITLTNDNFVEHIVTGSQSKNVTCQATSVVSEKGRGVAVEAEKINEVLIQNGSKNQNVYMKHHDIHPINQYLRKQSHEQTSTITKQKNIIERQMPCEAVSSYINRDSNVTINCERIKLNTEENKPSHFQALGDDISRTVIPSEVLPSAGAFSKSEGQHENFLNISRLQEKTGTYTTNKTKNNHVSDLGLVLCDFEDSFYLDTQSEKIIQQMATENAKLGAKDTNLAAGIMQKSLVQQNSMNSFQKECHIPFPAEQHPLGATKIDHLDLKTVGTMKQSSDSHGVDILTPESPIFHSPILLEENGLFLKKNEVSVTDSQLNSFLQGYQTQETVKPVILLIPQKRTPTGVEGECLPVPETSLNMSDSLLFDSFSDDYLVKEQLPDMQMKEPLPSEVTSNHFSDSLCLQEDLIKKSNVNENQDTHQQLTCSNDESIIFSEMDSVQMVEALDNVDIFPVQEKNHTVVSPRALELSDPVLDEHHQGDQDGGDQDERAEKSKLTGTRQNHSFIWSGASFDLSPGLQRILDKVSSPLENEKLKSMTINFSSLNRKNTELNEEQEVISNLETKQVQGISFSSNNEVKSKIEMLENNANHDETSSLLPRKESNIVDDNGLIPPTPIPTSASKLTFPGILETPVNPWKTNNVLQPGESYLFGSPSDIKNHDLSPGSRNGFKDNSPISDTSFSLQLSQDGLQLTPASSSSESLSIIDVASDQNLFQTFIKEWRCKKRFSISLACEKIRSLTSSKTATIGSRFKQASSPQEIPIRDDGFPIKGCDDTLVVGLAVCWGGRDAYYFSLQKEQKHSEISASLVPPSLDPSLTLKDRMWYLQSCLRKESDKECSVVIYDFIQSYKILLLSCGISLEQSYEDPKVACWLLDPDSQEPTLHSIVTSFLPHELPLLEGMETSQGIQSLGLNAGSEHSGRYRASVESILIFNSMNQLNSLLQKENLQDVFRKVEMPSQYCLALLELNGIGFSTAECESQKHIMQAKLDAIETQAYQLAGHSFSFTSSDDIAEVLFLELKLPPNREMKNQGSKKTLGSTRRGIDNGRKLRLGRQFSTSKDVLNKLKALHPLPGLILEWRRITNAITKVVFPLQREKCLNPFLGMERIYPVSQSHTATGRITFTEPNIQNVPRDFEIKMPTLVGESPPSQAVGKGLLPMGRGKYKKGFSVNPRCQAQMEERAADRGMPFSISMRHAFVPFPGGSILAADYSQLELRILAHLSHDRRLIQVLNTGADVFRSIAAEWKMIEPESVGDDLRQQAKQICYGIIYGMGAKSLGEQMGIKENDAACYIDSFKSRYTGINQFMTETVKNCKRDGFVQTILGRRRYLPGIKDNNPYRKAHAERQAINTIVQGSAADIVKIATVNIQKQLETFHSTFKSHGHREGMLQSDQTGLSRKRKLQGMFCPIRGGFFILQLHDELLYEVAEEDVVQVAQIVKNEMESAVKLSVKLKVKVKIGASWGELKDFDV
`COc1cc2ncnc(Nc3ccc(Oc4ccccc4)cc3)c2cc1OC` has a remaining activity of 104%.
`CC(C)NC[C@@H](O)COc1cccc2ccccc12` has a remaining activity of 104%.
The remaining activity of `C[C@]12CC[C@H]3C(=CCc4cc(O)ccc43)[C@@H]1CCC2=O` is reported as 102%.
The remaining activity of `COc1ccc(CNc2nc(N(CCO)CCO)nc3c2ncn3C(C)C)cc1` is reported as 113%.
With `CCC(=O)Nc1ccc2ncnc(Nc3cccc(Br)c3)c2c1` the remaining activity was 120%.
For `CNCCC(Oc1ccc(C(F)(F)F)cc1)c1ccccc1` (stereo not shown), the remaining activity was 94.7%.

For quick reference, copied from above (study 3):
`Cc1ccc(CNS(=O)(=O)CC2=NC(=O)n3cccc3C2=O)cc1` has a remaining compound of 2.46%.
`COc1ccc2nc(O)c(-c3c4oc5cc(O)ccc5c4nc4c3c(=O)[nH]n4C3CCCCCCC3)cc2c1` gave a remaining compound of 38.5%.
`CCOC(=O)c1cccc(NC(=O)N2Cc3c(sc4c3CCCC4)-n3cccc3C2C)c1` (stereo not shown) gave a remaining compound of 0.291%.
